Experimental data pooled from the literature.
Numbered parts are unrelated; each lists some results of a single study. Several values in a cell are separate wells, animals, samples, runs or records.
Chain of UniProt Q13422 (whole entry, looked up): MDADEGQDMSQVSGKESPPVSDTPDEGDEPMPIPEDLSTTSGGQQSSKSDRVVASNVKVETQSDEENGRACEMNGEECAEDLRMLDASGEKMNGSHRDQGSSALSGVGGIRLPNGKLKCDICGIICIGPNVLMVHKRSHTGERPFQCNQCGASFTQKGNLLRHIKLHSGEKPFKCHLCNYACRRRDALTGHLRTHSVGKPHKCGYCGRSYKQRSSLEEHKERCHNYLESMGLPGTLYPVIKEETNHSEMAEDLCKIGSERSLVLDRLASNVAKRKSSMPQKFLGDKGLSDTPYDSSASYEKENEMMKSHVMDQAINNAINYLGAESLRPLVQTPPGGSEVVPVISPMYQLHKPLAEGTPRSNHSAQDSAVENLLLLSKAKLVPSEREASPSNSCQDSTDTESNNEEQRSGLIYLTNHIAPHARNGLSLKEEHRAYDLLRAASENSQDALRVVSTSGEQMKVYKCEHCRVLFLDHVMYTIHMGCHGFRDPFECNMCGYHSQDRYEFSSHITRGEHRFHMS
Chain of UniProt P9WI81 (whole entry, looked up): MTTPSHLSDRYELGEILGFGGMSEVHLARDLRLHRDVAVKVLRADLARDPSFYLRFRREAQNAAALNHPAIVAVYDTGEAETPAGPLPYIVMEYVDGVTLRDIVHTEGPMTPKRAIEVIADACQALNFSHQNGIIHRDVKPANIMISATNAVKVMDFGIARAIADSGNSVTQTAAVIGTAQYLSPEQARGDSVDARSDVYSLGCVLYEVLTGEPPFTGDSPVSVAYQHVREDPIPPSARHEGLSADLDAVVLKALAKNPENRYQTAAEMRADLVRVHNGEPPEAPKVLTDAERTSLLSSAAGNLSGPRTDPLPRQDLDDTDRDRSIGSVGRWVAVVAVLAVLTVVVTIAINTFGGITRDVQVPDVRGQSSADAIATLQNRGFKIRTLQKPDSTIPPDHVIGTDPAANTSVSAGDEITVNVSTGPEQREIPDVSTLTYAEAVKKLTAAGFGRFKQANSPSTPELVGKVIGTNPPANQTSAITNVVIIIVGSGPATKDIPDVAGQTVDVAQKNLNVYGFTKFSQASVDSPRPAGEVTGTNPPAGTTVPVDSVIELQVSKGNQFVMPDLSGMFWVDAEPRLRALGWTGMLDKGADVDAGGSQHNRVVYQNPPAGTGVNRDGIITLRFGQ
Chain of UniProt P61075 (whole entry, looked up): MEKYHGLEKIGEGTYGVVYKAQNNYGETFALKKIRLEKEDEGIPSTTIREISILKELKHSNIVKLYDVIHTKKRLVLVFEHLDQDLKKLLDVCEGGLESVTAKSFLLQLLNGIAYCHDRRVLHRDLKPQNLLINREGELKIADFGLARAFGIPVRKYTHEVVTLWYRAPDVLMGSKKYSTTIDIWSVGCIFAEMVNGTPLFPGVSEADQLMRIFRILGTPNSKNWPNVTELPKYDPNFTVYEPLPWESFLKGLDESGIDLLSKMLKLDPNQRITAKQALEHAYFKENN
Chain of UniProt P15170 (whole entry, looked up): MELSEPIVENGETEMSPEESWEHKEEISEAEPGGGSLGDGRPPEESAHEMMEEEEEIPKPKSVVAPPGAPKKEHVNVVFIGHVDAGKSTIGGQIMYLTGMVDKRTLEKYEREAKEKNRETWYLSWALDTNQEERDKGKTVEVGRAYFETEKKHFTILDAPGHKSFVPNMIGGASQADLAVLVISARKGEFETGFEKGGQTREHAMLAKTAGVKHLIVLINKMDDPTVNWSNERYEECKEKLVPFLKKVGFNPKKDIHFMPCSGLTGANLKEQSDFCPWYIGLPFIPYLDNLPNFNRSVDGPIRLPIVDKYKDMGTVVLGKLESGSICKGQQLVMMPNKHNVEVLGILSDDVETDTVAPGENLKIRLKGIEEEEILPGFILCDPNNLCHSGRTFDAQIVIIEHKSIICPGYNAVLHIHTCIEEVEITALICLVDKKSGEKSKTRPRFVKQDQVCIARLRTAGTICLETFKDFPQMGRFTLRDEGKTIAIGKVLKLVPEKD
Chain of UniProt Q01959 (whole entry, looked up): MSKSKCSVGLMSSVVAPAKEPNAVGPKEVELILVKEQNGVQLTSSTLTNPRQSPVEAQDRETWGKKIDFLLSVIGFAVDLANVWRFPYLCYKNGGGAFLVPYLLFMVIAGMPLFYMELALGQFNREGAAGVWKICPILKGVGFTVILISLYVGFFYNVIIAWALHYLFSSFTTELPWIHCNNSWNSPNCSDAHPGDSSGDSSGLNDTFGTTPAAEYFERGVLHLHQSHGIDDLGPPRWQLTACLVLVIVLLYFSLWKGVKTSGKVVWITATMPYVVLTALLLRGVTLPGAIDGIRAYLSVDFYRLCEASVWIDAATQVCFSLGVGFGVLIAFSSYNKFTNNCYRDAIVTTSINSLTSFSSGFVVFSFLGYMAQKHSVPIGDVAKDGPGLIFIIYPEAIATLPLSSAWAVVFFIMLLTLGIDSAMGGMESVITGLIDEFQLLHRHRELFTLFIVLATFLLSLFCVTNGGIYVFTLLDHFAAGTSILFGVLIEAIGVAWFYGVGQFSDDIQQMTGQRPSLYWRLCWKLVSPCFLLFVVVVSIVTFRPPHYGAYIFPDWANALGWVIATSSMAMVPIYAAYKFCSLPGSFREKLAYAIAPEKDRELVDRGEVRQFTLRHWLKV
Chain of UniProt P62344 (whole entry, looked up): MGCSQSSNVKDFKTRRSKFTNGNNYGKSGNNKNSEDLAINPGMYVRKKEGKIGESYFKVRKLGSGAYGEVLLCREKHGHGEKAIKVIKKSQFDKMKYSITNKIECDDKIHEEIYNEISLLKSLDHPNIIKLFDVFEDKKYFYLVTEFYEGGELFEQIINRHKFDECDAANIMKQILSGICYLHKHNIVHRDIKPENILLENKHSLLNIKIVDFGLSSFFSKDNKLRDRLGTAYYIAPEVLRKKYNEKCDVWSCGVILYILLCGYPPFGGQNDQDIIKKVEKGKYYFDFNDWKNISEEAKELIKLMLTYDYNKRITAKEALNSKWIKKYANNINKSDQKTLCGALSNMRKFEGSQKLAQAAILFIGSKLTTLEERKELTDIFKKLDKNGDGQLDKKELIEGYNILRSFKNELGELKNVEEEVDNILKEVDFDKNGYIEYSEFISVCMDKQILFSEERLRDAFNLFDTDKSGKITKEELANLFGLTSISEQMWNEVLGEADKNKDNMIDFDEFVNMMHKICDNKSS

Study 1
SMILES: O=C1CCC(N2Cc3c(ccc4c3OCC43CCN(Cc4ccccc4)CC3)C2=O)C(=O)N1 (stereo not drawn)
Mode: degrader
Method: HiBiT
Cell line: HEK293
Time: 6 h
CSNK1A1: Casein kinase I isoform alpha (CSNK1A1, Homo sapiens, UniProt P48729)
Chain of UniProt P48729 (whole entry, looked up): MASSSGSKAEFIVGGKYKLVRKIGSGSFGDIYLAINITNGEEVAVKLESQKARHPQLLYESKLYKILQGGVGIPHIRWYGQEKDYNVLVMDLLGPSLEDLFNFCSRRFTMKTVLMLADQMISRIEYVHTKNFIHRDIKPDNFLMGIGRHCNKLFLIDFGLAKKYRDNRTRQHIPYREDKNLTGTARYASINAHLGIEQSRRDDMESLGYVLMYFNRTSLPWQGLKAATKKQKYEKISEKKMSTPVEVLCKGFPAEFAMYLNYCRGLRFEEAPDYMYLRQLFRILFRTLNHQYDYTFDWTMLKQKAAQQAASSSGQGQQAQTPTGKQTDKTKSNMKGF
SALL4: Sal-like protein 4 (SALL4, Homo sapiens, UniProt Q9UJQ4)
Chain of UniProt Q9UJQ4 (whole entry, looked up): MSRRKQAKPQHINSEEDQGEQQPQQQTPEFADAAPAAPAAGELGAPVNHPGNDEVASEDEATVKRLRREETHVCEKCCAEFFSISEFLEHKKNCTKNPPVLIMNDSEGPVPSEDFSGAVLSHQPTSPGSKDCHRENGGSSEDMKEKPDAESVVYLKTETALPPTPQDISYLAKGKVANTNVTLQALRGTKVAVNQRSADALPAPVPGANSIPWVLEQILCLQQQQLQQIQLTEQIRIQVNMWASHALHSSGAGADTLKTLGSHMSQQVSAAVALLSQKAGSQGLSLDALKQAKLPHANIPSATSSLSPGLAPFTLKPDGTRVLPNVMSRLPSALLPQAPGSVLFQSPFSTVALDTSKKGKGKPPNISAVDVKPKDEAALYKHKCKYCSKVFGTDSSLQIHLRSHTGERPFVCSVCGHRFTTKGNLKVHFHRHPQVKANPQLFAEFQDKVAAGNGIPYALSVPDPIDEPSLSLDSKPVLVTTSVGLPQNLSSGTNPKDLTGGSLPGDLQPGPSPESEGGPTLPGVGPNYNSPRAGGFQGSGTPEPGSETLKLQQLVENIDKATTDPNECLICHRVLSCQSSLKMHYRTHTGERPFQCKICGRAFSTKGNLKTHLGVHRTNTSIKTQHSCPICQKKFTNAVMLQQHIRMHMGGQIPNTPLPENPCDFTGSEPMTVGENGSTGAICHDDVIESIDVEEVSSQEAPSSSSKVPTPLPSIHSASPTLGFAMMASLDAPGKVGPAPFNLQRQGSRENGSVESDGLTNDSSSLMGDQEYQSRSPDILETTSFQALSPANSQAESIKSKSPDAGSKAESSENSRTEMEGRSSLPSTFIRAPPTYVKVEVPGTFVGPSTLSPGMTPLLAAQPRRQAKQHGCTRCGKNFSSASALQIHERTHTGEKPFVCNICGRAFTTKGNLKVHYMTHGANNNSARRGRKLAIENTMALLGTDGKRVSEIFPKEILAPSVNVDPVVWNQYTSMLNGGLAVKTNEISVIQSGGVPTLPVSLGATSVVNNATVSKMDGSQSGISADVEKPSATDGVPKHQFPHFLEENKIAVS
Zinc finger protein Aiolos: Zinc finger protein Aiolos (Homo sapiens, UniProt Q9UKT9)
Chain of UniProt Q9UKT9 (whole entry, looked up): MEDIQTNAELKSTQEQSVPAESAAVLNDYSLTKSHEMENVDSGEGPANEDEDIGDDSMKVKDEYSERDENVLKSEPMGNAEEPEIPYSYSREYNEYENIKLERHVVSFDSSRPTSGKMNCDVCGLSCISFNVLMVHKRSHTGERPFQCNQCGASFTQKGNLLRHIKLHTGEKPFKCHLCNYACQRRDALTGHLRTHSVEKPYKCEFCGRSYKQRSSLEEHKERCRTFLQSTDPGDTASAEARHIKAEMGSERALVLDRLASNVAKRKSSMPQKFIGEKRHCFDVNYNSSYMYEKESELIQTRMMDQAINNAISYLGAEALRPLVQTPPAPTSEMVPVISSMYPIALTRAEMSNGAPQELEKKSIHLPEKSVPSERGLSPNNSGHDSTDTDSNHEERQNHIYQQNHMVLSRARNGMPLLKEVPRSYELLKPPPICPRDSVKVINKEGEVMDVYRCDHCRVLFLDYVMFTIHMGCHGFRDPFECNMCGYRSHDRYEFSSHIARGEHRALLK
CSNK1A1; 0.004572 µM — remaining protein: 106%.
The remaining protein was 78.2% (SALL4; 0.0005081 µM).
The remaining protein was 105% (Zinc finger protein Aiolos; 3.333 µM).
It gave 79.6% for remaining protein (SALL4; 0.3704 µM).
DNA-binding protein Ikaros (Homo sapiens, UniProt Q13422); 0.04115 µM — remaining protein: 104%.
Zinc finger protein Aiolos; 0.004572 µM — remaining protein: 95%.
It gave 108% for remaining protein (Eukaryotic peptide chain release factor GTP-binding subunit ERF3A (GSPT1, Homo sapiens, UniProt P15170); 0.004572 µM).
SALL4; 1.111 µM — remaining protein: 75.1%.
The remaining protein was 109% (CSNK1A1; 1.111 µM).
The remaining protein was 104% (Zinc finger protein Aiolos; 0.3704 µM).
CSNK1A1; 0.1235 µM — remaining protein: 108%.
It gave 70.8% for remaining protein (SALL4; 3.333 µM).
It gave 82.4% for remaining protein (SALL4; 0.01372 µM).

Study 2
Cell line: mouse MPNST tumor cells
Method: high-content immunofluorescence imaging
Item: nuclear SOX9
Tested at: 10 µM
Time: 12 h
Notes: mean of 2 replicates
Baseline: DMSO control
Direction: higher = more nuclear SOX9
`O=c1[nH]c2ccccc2n1C1CCN(CCCC(c2ccc(F)cc2)c2ccc(F)cc2)CC1` — result for “nuclear SOX9 intensity”: 167 % of DMSO.
`C[N+]1(C)CCOC(O)(c2ccc(-c3ccc(C4(O)C[N+](C)(C)CCO4)cc3)cc2)C1` (stereo not drawn) — result for “nuclear SOX9 intensity”: 93.3 % of DMSO.
`Oc1cc(Cl)ccc1Oc1ccc(Cl)cc1Cl` — result for “nuclear SOX9 intensity”: 123 % of DMSO.
`CCCN1C[C@H](CSC)C[C@@H]2c3cccc4[nH]cc(c34)C[C@H]21`: “nuclear SOX9 intensity” 132 % of DMSO.
`S=C(NC1CCCCC1)N1CCC(c2cnc[nH]2)CC1`: “nuclear SOX9 intensity” 102 % of DMSO and 96 % of DMSO.
Under “nuclear SOX9 intensity”, `COc1ccc2c(c1)/C(=C/c1cnc[nH]1)C(=O)N2` is recorded as 138 % of DMSO.
Under “nuclear SOX9 intensity”, `CCN1C[C@]2(COC(=O)c3ccccc3N3C(=O)C[C@H](C)C3=O)CC[C@H](OC)[C@@]34[C@@H]5C[C@H]6[C@H](OC)[C@@H]5[C@](O)(C[C@@H]6OC)[C@](O)([C@@H](OC)[C@H]23)[C@@H]14` is recorded as 95.7 % of DMSO.

Study 3
Cell line: A-375
Tested at: 100 µM
Time: 36 h
`COc1ccc(CN(C(=O)[C@@H](N)Cc2c(C)cc(C(N)=O)cc2C)[C@@H](C)c2nc(-c3ccccc3)c[nH]2)cc1C(=O)O` gave a viability of 92.3%.
The viability of `CN[C@H]1C[C@@H](N)[C@H](O)[C@@H](O[C@@H]2O[C@H](CO)[C@H](O)[C@@H]3OC4(O[C@H]23)O[C@H]([C@@H](N)CO)[C@H](O)[C@H](O)[C@H]4O)[C@@H]1O` (stereo partly drawn) is reported as 110%.
With `CCCCC(C#N)(Cn1cncn1)c1ccc(Cl)cc1` (stereo not drawn) the viability was 52.3%.
`C[C@H]1CNCCc2ccc(Cl)cc21` has a viability of 110%.
The viability of `CN(C(=O)/C=C/c1ccoc1)[C@@H]1CC[C@@]2(O)[C@H]3Cc4ccc(O)c5c4[C@@]2(CCN3CC2CC2)[C@H]1O5` is reported as 102%.
With `O=C(O)c1nn(Cc2ccc(Cl)cc2Cl)c2ccccc12` the viability was 87.7%.

Single results of other studies
Observed: cell-free assay
With `CC(C)(O)c1cncc(-c2nc3ccc(F)cc3n2C2CC2)c1` the remaining binding was 100% (Serine/threonine-protein kinase PknB (pknB, Mycobacterium tuberculosis, UniProt P9WI81); competition with immobilised ligand; 1 µM).
`CC(=O)N1CCC(c2ccc(C(=O)NC3=NCCN3)cc2C(F)(F)F)CC1` has a remaining binding of 90% (Calcium-dependent protein kinase 1 (CDPK1, Plasmodium falciparum, UniProt P62344); competition with immobilised ligand; 1 µM).
The remaining binding of `CC(=O)Nc1c(C(C)=O)c(=O)n(C)c2nc(-c3ccc(Cl)cc3Cl)c(-c3ccc(Cl)cc3)cc12` is reported as 100% (Cyclin-dependent kinase 2 homolog (CRK2, Plasmodium falciparum, UniProt P61075); competition with immobilised ligand; 1 µM).
For `CC(=O)C1=C(C)N(c2cccc(C(F)(F)F)c2)C(=O)N[C@H]1c1ccc(C#N)nc1`, the inhibition was 1.88% (Sodium-dependent dopamine transporter (SLC6A3, Homo sapiens, UniProt Q01959); 10 µM).

Excerpt of the above (study 1):
It gave 70.8% for remaining protein (SALL4; 3.333 µM).
DNA-binding protein Ikaros (Homo sapiens, UniProt Q13422); 0.04115 µM — remaining protein: 104%.
It gave 79.6% for remaining protein (SALL4; 0.3704 µM).
